Results pooled from the literature.
A part holds a random share of what one study measured.
Chain of UniProt P53671 (whole entry, looked up): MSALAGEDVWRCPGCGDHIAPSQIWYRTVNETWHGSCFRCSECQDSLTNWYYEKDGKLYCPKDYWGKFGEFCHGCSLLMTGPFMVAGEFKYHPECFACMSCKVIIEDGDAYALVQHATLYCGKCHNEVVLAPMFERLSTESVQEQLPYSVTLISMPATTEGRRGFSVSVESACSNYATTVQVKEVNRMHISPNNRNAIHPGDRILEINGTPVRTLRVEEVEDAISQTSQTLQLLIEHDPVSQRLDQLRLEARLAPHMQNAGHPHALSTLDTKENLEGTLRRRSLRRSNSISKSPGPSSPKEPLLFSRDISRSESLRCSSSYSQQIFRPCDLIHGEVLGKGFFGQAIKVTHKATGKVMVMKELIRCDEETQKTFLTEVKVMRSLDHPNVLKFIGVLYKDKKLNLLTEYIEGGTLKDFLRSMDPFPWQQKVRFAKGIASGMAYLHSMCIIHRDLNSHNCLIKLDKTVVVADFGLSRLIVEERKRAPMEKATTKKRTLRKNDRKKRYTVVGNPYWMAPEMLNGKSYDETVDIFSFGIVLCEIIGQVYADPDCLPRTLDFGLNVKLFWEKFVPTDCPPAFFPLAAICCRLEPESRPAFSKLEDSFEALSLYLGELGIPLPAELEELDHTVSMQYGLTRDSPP
Chain of UniProt P42336 (whole entry, unmodified, looked up): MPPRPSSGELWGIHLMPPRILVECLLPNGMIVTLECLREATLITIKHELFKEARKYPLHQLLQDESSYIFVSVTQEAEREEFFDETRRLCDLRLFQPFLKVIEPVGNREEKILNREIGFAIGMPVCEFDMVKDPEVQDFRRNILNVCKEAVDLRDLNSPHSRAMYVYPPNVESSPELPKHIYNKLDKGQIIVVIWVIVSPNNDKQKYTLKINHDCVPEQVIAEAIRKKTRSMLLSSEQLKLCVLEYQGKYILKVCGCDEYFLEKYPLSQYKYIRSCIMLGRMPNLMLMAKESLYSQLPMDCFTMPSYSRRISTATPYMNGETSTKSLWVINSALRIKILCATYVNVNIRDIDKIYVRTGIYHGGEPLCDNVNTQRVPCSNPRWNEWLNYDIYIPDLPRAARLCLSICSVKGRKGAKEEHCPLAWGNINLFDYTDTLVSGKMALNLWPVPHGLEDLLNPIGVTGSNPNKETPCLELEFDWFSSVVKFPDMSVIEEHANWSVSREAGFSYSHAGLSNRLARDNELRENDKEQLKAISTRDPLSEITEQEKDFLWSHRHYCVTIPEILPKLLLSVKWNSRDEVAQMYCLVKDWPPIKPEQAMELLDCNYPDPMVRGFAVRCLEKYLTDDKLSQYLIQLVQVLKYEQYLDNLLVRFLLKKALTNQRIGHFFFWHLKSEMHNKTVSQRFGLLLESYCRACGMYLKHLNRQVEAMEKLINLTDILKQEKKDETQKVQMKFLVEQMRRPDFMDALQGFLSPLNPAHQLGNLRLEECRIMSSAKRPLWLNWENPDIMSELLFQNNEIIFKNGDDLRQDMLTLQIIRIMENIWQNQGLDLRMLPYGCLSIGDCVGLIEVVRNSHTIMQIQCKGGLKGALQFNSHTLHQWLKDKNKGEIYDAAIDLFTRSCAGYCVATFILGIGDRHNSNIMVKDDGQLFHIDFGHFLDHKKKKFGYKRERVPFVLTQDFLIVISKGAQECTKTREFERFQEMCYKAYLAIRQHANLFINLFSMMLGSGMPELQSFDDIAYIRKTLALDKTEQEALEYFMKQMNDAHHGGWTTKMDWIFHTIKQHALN
Chain of UniProt O96017 (whole entry, looked up): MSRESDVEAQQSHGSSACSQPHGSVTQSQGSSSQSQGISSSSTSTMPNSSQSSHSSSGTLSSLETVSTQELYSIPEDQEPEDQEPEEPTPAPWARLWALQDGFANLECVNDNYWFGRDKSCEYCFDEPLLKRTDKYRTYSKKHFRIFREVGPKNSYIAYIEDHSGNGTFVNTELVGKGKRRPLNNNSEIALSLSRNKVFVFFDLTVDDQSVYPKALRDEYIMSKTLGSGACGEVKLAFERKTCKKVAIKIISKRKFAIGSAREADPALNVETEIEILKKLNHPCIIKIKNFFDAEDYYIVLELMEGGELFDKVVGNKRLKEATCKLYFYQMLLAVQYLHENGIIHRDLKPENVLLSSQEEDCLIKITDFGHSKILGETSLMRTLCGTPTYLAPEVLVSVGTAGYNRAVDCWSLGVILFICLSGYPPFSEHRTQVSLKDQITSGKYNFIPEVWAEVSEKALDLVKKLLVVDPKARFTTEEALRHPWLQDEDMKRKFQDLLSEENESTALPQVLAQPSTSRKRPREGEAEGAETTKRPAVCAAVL
Chain of UniProt Q8NG66 (whole entry, looked up): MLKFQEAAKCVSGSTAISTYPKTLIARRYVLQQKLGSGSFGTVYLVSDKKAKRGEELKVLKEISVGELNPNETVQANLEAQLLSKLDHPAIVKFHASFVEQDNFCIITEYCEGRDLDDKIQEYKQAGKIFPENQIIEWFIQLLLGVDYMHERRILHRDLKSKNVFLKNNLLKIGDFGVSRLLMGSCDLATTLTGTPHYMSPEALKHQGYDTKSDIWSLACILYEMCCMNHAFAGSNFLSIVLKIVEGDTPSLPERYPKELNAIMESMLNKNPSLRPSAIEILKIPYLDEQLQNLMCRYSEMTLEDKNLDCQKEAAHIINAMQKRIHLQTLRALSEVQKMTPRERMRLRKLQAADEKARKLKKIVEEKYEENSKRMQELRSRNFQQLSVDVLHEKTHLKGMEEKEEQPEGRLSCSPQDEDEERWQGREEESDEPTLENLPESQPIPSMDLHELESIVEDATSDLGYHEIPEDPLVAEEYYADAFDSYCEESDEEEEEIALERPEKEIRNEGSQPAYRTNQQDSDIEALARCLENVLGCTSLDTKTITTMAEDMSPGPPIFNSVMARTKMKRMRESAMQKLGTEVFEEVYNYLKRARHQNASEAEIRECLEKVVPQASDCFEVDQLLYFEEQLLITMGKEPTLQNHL
Chain of UniProt Q13237 (whole entry, looked up): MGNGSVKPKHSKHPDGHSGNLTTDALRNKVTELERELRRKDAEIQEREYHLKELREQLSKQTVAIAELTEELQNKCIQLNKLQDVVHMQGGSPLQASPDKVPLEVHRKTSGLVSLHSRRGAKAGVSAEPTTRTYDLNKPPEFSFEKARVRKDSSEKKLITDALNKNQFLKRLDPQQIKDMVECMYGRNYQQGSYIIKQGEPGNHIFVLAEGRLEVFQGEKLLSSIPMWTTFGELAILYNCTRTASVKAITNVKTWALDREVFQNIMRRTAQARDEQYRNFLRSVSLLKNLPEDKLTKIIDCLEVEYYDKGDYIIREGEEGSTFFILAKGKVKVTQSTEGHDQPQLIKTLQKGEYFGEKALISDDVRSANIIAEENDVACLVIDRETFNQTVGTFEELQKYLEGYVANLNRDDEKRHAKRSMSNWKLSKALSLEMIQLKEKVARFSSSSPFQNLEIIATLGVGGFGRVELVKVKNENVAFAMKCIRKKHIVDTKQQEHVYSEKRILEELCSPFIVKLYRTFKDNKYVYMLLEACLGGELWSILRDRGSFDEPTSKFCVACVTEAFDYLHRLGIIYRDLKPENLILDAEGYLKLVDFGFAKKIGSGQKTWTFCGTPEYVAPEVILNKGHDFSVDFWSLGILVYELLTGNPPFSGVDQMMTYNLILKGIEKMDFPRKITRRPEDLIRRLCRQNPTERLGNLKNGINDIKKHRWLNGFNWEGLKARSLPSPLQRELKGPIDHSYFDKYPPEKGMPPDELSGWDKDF

Series 1
Target: Beta-1 adrenergic receptor (ADRB1, Homo sapiens, UniProt P08588)
Chain of UniProt P08588 (whole entry, looked up): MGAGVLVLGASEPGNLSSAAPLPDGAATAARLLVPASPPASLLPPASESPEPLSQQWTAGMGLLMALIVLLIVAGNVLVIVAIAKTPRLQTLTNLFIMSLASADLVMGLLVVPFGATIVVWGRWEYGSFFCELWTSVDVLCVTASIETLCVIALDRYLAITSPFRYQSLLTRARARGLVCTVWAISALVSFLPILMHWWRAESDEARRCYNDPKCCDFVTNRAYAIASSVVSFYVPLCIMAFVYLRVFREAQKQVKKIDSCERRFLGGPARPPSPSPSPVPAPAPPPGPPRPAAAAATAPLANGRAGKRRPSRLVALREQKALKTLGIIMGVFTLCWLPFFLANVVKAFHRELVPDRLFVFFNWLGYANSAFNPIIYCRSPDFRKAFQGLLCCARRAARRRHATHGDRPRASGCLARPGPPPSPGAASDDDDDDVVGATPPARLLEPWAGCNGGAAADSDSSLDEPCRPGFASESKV
Mode: agonist
Endpoint: Emax
OC(COc1ccccc1-c1ccncc1)CN1CCOCC1 (centres unmarked): 129%
COc1ccccc1N1CCN(CCCNc2c(C)c(=O)n(C)c(=O)n2C)CC1: 82.7%
COC(=O)CCc1ccc(OCC(O)CNC(C)C)cc1 (centres unmarked): 35.1%
CN1CCC2(CC1)CCN(Cc1ccc(OCC(O)CN3CCCCC3)cc1)C2 (centres unmarked): 63%
COc1ccc(CCNCC(O)COc2cccc(C)c2)cc1OC (centres unmarked): 61.6%
CCC(CC)C(=O)NC[C@H]1O[C@@H](CC(=O)N2CCN(c3ccccc3OC)CC2)[C@H](O)[C@@H]1O: 36.6%
Cc1cc(O)c(C(C)(C)C)cc1Sc1cc(C(C)(C)C)c(O)cc1C: 63.2%
Nc1nc(CC(=O)Nc2ccc(CCNC[C@H](O)c3ccccc3)cc2)cs1: 97.7%

Series 2
Species: human
Matrix: microsomes or S9
Tested at: 2 µM
Time: 0.5 h
Endpoint: remaining compound
Nc1n[nH]c2nc(N3CCCC3)c3c(c12)CCN(C1CCCCC1)C3: 66.7%
CN(Cc1cc2cc(F)ccc2[nH]1)C(=O)CC1C(=O)NCCN1CC(C)(C)C (centres unmarked): 0.749%
O=C(COc1ccc2c3ccccc3n(C(=O)c3ccc(Br)cc3)c2c1)N1CCOCC1: 68.5%
COC(=O)CC(c1cc2ccccc2[nH]c1=O)c1c(Cc2ccccc2)[nH][nH]c1=O (centres unmarked): 89.2%
CC(C)(C)Nc1ncc(-c2cn[nH]c2)cc1-c1nc2ccccc2o1: 99.1%
CCCC(C)N(C)S(=O)(=O)c1ccc(NS(=O)(=O)CC)c(F)c1 (centres unmarked): 44%
CC1CN(C(=O)C2CCC2)C(C)CN1C(=O)C1CCC1 (centres unmarked): 74.7%
Cc1cccc(NC(=O)C2ON=CC2C(=O)N2CCOCC2)c1 (centres unmarked): 97%
COC[C@@H]1[C@H](NC(=O)CCN2CCCO2)[C@@H]2CCO[C@H]12: 67.6%
Cc1cc(C)n(Cc2nnc(Nc3ccccc3)o2)n1: 99.2%
COc1cc(OC)c2nc(N3C[C@@H](NC(C)=O)[C@H](C(C)C)C3)cc(C)c2c1: > 99%
CCN1C(=O)C2(CC(=O)Nc3c2cnn3-c2nc3ccccc3s2)c2cccc(C)c21 (centres unmarked): 37.4%
CCOC(=O)c1[nH]c(C)c(C(=O)CN(CC(C)C)C(=O)CC)c1C: 84.6%

Series 3
Target: Dual specificity protein kinase TTK (TTK, Homo sapiens, UniProt P33981)
Chain of UniProt P33981 (whole entry, looked up): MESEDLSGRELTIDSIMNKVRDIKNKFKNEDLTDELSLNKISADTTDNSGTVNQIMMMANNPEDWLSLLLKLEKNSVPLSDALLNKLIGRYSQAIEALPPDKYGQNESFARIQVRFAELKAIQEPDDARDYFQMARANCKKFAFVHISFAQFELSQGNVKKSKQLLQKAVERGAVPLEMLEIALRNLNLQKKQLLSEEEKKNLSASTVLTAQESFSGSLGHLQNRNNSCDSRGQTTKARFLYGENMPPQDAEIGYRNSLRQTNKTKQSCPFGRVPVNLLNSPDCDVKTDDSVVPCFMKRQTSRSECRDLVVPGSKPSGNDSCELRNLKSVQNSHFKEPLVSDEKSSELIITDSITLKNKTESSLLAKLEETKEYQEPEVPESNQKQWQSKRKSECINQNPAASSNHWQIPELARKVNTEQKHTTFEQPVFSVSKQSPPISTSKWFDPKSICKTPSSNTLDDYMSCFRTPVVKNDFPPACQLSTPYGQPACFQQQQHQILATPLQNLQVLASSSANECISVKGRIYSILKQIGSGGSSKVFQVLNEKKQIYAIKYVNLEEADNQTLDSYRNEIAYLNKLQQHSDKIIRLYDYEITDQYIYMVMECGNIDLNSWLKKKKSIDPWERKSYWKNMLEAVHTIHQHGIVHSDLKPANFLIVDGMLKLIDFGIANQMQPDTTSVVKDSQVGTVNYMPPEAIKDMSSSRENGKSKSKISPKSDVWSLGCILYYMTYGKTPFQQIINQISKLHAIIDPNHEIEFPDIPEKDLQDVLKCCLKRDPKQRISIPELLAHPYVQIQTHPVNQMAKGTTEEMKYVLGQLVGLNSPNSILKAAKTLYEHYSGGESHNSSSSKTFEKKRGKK
Read-out: enzyme activity
Mode: inhibitor
Tested at: 0.5 µM
Reference: control
Endpoint: remaining activity
O=C1Cc2c([nH]c3ccc(Br)cc23)-c2ccccc2N1: 80.9%
O=c1cc(N2CCOCC2)oc2c(-c3ccccc3)cccc12: 103%
Cc1cc(Nc2cc(N3CCN(C)CC3)nc(Sc3ccc(NC(=O)C4CC4)cc3)n2)[nH]n1: 104%
O=C1NC(=O)c2c1c1c3ccccc3[nH]c1c1[nH]c3cc(Br)ccc3c21: 98.7%
COc1cccc(-c2cc(=O)c3ccccc3o2)c1N: 99%
CCCCc1c(-c2ccc(OC)cc2)[nH]c2nccnc12: 87.9%
CCCNC(=O)Nc1ccc(Oc2ncnc3cc(OC)c(OC)cc23)cc1Cl: 88.6%
CN1CCN(c2ccc3nc(-c4c(N)c5c(F)cccc5[nH]c4=O)[nH]c3c2)CC1: 102%
O=C1Nc2ccccc2/C1=C\c1c(Cl)[nH]c2ccccc12: 101%
O=C1NC(=O)c2c1c1c3ccccc3[nH]c1n1cncc21: 79%
N#Cc1cnc2cnc(NCc3cccnc3)cc2c1Nc1ccc(F)c(Cl)c1: 99.1%
c1ccc(-c2n[nH]c3c2oc2ccccc23)cc1: 95.7%
O=Nc1c(-c2c(O)[nH]c3cc(Br)ccc23)[nH]c2ccccc12: 69.8%
CN(C)S(=O)(=O)c1ccc2c(c1)/C(=C/c1cc3c([nH]1)CCCC3)C(=O)N2: 89.7%
O=C(c1cc2cc(O)ccc2[nH]1)c1cc2cc(O)ccc2[nH]1: 92.9%
Cc1ccc(S(=O)(=O)/C=C/C#N)cc1: 107%
c1ccc2c(-c3ccncc3)c[nH]c2c1: 112%
COc1ccc2c(c1)c(C1=C(c3c[nH]c4ccccc34)C(=O)NC1=O)cn2CCCN(C)C: 89.9%
COc1ccc(COc2ccc(Cc3cnc(N)nc3N)cc2OC)cc1: 105%

Series 4
Compound: CCOC(=O)c1cc2cc(-c3cc(C(=O)NCc4ccc(C(=O)O)cc4)nn3C)ccc2[nH]1
Technique: competition with immobilised ligand
Tested at: 0.1 µM
Endpoint: remaining binding
Serine/threonine-protein kinase tousled-like 1 (TLK1, Homo sapiens, UniProt Q9UKI8); cell-free assay: 83%
Vascular endothelial growth factor receptor 2 (KDR, Homo sapiens, UniProt P35968); cell-free assay: 81%
Serine/threonine-protein kinase VRK2 (VRK2, Homo sapiens, UniProt Q86Y07); cell-free assay: 98%
Serine/threonine-protein kinase Chk2 (CHEK2, Homo sapiens, UniProt O96017); cell-free assay: 100%
MAP/microtubule affinity-regulating kinase 4 (MARK4, Homo sapiens, UniProt Q96L34); cell-free assay: 79%
Platelet-derived growth factor receptor beta (PDGFRB, Homo sapiens, UniProt P09619); cell-free assay: 86%
Serine/threonine-protein kinase LATS1 (LATS1, Homo sapiens, UniProt O95835); cell-free assay: 97%
Mitogen-activated protein kinase kinase kinase kinase 3 (MAP4K3, Homo sapiens, UniProt Q8IVH8); cell-free assay: 89%
Cyclin-dependent kinase 11A (CDK11A, Homo sapiens, UniProt Q9UQ88); binding: 100%
Wee1-like protein kinase 2 (WEE2, Homo sapiens, UniProt P0C1S8); cell-free assay: 100%
Misshapen-like kinase 1 (MINK1, Homo sapiens, UniProt Q8N4C8); cell-free assay: 94%
Epidermal growth factor receptor (EGFR, Homo sapiens, UniProt P00533, L858R/T790M); cell-free assay: 100%
Serine/threonine-protein kinase WNK2 (WNK2, Homo sapiens, UniProt Q9Y3S1); cell-free assay: 85%
Tyrosine-protein kinase ABL1, non-phosphorylated (ABL1, Homo sapiens, UniProt P00519, H396P); cell-free assay: 88%
Serine/threonine-protein kinase 33 (STK33, Homo sapiens, UniProt Q9BYT3); cell-free assay: 100%
Serine/threonine-protein kinase 10 (STK10, Homo sapiens, UniProt O94804); cell-free assay: 100%
Mitogen-activated protein kinase kinase kinase 14 (MAP3K14, Homo sapiens, UniProt Q99558); cell-free assay: 58%
cGMP-dependent protein kinase 2 (PRKG2, Homo sapiens, UniProt Q13237); cell-free assay: 93%
Serine/threonine-protein kinase Nek2 (NEK2, Homo sapiens, UniProt P51955); cell-free assay: 99%
Calcium/calmodulin-dependent protein kinase type 1D (CAMK1D, Homo sapiens, UniProt Q8IU85); cell-free assay: 100%
Mitogen-activated protein kinase 15 (MAPK15, Homo sapiens, UniProt Q8TD08); cell-free assay: 100%
Serine/threonine-protein kinase Nek11 (NEK11, Homo sapiens, UniProt Q8NG66); cell-free assay: 77%
Ribosomal protein S6 kinase alpha-6, N-terminal kinase domain (RPS6KA6, Homo sapiens, UniProt Q9UK32); cell-free assay: 95%
LIM domain kinase 2 (LIMK2, Homo sapiens, UniProt P53671); cell-free assay: 96%
Phosphatidylinositol 4,5-bisphosphate 3-kinase catalytic subunit alpha isoform (PIK3CA, Homo sapiens, UniProt P42336, E545A); cell-free assay: 84%

Some of these lines once more (series 3):
CN1CCN(c2ccc3nc(-c4c(N)c5c(F)cccc5[nH]c4=O)[nH]c3c2)CC1: 102%
O=c1cc(N2CCOCC2)oc2c(-c3ccccc3)cccc12: 103%
COc1ccc(COc2ccc(Cc3cnc(N)nc3N)cc2OC)cc1: 105%
O=C1Nc2ccccc2/C1=C\c1c(Cl)[nH]c2ccccc12: 101%
CCCNC(=O)Nc1ccc(Oc2ncnc3cc(OC)c(OC)cc23)cc1Cl: 88.6%
CN(C)S(=O)(=O)c1ccc2c(c1)/C(=C/c1cc3c([nH]1)CCCC3)C(=O)N2: 89.7%
O=Nc1c(-c2c(O)[nH]c3cc(Br)ccc23)[nH]c2ccccc12: 69.8%
N#Cc1cnc2cnc(NCc3cccnc3)cc2c1Nc1ccc(F)c(Cl)c1: 99.1%
c1ccc(-c2n[nH]c3c2oc2ccccc23)cc1: 95.7%
